Measured values gathered from unrelated publications.
Every numbered part comes from another study and shows a few of its results, in no order.

Sample 1
Target: RNA binding protein fox-1 homolog 2, RRM domain, GST-SBP tag (RBFOX2, Homo sapiens, UniProt O43251-10, residues 100-194)
Method: RNA Bind-n-Seq
Form: RNA
Matrix: in vitro
Concentration: 365 nM
Notes: natural RNA segment, single round, ends assumed
Reference: no-protein control
Direction: higher = stronger binding
Shared flanks, not repeated: GGGAGUUCUACAGUCCGACGAUC … UGGAAUUCUCGGGUGCCAA
Target sequence (chain): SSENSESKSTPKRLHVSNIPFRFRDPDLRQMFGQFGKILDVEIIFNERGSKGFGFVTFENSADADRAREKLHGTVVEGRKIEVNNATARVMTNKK
Oligonucleotide | RBNS enrichment (R)
UAUGGUUAAACUGUAAAUCUUAUGUUUACAAAAAUACUGUAAUCUUCAGGAAAUCACUGUAUUAGGAAUGUGCAAUGACUUAUAUAAAUAAAGCCAUUUUUUGAAACUGC | 0.557
UACAGGUGAAUGUGCCACCUCCACAAAUGGCUUCUCCGAGUGAGUCACGUCACCUGGUGCGUGGAGGUGGAGCCUGCGGCUGGAGUAAGGCUUGCUGUGGGACGCCCUCG | 1.72
UAAUAGGACAUCAUAUGGUAAUAGACUGGUUUGACUAUAUUGUUAGCUGCCACAGUAAGCAGGUCAUUGUAUAGGUAAAUGCCUGCACCCAUAAUUUUCUAGUAAUAGCC | 0.471
GCUGCCAGUCACUGGUCUGGGGGGUGGAGGCCUGAGCUGAGGGCAGGGUGCCUGACCUGUGUGCCGGCUGCUCACUGCUGUGACCAGCAGCCGAGCCCUUGGCCCUAGCC | 0.449
AGGGAGGGCCCACCUUAGACUGCUGGGGAGAGGCCACAGGGCUGGGGGCCAGGUCCGGCCAGCUGUGCCCAUCGCCUGGGAGAAGGCCAGCUCACCAACUGAGCUCUGGA | 0.353
CCCUCCAGAGCUUGAACAACAACUUUAGGAGUAAAUAAAAGCCUAAAAUAUAUUUUAACCAUCCAGAGAUGGUGUUGAAUCCUUCAACAAAUGUGUCAUUCAAAACAGUA | 0.816
UGGGGAGGGGUUCUUUAGACUCUUGAAGGCAACUCAGGGUAUUGUCCACCCAGCUAUGUAGUUAGACUUCUCCCAGGGAAUGAGUGUGGCAUUUCCUUCAUAGAUAGACC | 0.929
GAUUCUCUAAAGGAAUUUGGAGAUAUGACAUCACUCCUGAGCAGAGCAUAUUAGAAGAAAGCAAACUGCCAUACAAUAAUUUUCAGUUUCCAAGGCAACCAAGUGGAGAA | 1.27
AUUAUUCAGGAGGGCUGGGGGGGCUCCCUGGUUCUGAGCAUCAUCCUUUCCCCUCCCCUCUCUUCCUCCCCUCUGCACUUUGUUUACUUGUUUUGCACAGACGUGGGCCU | 1.47
CUCCAUUUAGCUGGCCAAUCAGCCCAGGAGGGGCAGGUUCCCCGGGGCCGGCGCUAGGAUUUGCACUAAUGUUCCUCUCCCCGCGGGUGGGGGCGGGGAAAUUCAUAUCC | 0.878
UGCCCCAAAUGCAGCUUCAUUUUCCAGAUACCUUGACGCAGAAUAAAUUUUUUCAUCAUUUAGGUGCGCUUGUUGUGUAGUAUGUUUUAUUUUUGGUUUUCAAUUGAAUG | 0.362
GUGACUGAAGCCGCUUAGUGCUGUGGCCUCACUGCAGGCAGGAGCCCCGCCCCUCCUGCCGGGGGAGGCCCAGGGACCGGAGCAUUUCUGCAAGGCCCUUGUGGGCACGA | 0.269

Sample 2
Target: Hepatocyte nuclear factor 3-beta, forkhead domain (FOXA2, Homo sapiens, UniProt Q9Y261, residues 142-269)
Method: protein-binding microarray
Form: double-stranded DNA, one strand shown
Matrix: in vitro
Concentration: not given
Notes: k-mer, scored over probes, only values ≥0.25
Direction: higher = stronger binding
Construct (chain): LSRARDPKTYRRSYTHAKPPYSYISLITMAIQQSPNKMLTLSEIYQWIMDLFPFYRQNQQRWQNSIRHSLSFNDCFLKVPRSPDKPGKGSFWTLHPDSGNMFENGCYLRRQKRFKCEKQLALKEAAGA
Oligonucleotide | E-score
CCCATATA | 0.271
TCAACAAA | 0.314
ACTATTTG | 0.285
ATATACGA | 0.269
AACATATA | 0.373
TGTACACA | 0.459
ATAAATAC | 0.375
GTTGTTTA | 0.362
TGTGATAA | 0.288
CGTAAACA | 0.342
ATACTGAC | 0.343
ACATACAA | 0.349
ATACTCAA | 0.258
AATATTTG | 0.339
TCGTACAA | 0.274
AGTGTTTG | 0.331
CAATCACA | 0.253
ATACAAGC | 0.261
AACATCGA | 0.264
ACCTTATA | 0.285
ATTTTATA | 0.272
AATAAACA | 0.375
CACACTTA | 0.319
CACATGTA | 0.389
GGTCAATA | 0.319

Sample 3
Target: RING finger protein unkempt homolog, zinc fingers 1-6, GST-SBP tag (UNK, Homo sapiens, UniProt Q9C0B0, residues 30-357)
Method: RNA Bind-n-Seq
Form: RNA
Matrix: in vitro
Concentration: not given
Notes: RNA with constant flanks, human-mouse chimeric sites, ends assumed
Reference: input RNA pool
Direction: higher = stronger binding
Shared flanks, not repeated: GGGAGUUCUACAGUCCGACGAUC … CAACAGAGGAUUGAGCAUCA
Residues (chain): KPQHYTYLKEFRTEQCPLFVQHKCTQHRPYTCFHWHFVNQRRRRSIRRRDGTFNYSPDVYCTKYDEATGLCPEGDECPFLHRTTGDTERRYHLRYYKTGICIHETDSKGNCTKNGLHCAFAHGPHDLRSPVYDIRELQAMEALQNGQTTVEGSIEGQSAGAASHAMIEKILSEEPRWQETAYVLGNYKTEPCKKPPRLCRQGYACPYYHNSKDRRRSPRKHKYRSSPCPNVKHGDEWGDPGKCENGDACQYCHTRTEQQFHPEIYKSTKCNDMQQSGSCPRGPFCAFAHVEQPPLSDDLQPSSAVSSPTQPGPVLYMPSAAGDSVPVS
Oligonucleotide | bound/input enrichment [ratio]
CGCUUGGAUGAGGCGGGUGUCACAGAUGAAGUGCUGGAUUCUGCCAUGCAAGCCUUCCUUCUGGAGGUCAUUGUUAAACAUGGGGAGCCAGCCCCUUAUUUAUGUAACAAAGAUCCGUUU | 0.0811
CAGCGCCGAGGCCGCGGUUUCCCCCUGGGUGUGCUGAGCAGCAGCCAUGGGCAUCAAAUUUUUAGAAGUUAUCAAACCAUUCUGUGCAGUUCUACCAGAAAUUCAGAAGCCUGAAAGGAA | 1.13
CUCAGAGAUGUGGCAUAUCAGUAUGUGAAAAAGGGGUCUCGUAUAUUUGUGGAAGGGAAAAUAGACUAUGGCGAGUACAUGGAUAAAAACAAUGUGAGGCGGCAAGCAACAACAAUCAUA | 0.525
CUGGCACUGUAUCAGAUAGAUUACUUUUUUAAUGUAGAUGUAAUUUUAAAAAUGAAUGGCUACUUUACACGUUUAACUAGGGUUUUACUAUAUAUGUGUACAUAUGUAUAUAUAUAUAUA | 5.34
GGACAUCUUGUCAGGAUUUAUGUUCCUGUGAAACAAGUGAACACUCUGAUACACUUCAUUUAGUUGUACAUCUGUAUGAUAGAGAAAUGUAAAUAUGUUAAUCCAAGCAAUGUGUCACUU | 0.181
GCCACCAAUUCCAGCCAACAUGACUCUUGCUGCCUACAAAGAGAAGAUGAAGGAGCUCCCGCUGGUGUCCUUGUUCUGCUCCUGCUUCCUGGCCGAUCCCCUGAAUAAGUCGUCCUACAA | 0.343
CGCUGGCCCAAGCUGAUGUAAAUGUUUGGCCUCCAUCUCUCAGGCACGUGUGCCUUCUCUUAGUCCCUGUUUUCGGGUCACAAAGCUUCUCAGUACUGUGGUUUGAAAGCACCAGCUUUG | 0.159

Sample 4
Organism: Saccharomyces cerevisiae
Effect on: binding
Method: competitive growth deep sequencing
Form: peptide
Strain: cyclin E1-Cln2 fusion strain
Concentration: concentration not given
Notes: tiling library, Cln2 subtracted
Direction: direction not given
Molecule | growth enrichment score
QDYERRLLRQIVIQNE | -0.272
TSSAQRRLEIPSGGAD | 0.0797
PKNAKRNLSSEFAN | 1.57
PHKTFRKLRLFDTPHT | 1.29

Sample 5
Target: Ras GTPase-activating protein-binding protein 1, full length (G3BP1, Homo sapiens, UniProt Q13283)
UniProt Q13283, sequence (whole entry, looked up): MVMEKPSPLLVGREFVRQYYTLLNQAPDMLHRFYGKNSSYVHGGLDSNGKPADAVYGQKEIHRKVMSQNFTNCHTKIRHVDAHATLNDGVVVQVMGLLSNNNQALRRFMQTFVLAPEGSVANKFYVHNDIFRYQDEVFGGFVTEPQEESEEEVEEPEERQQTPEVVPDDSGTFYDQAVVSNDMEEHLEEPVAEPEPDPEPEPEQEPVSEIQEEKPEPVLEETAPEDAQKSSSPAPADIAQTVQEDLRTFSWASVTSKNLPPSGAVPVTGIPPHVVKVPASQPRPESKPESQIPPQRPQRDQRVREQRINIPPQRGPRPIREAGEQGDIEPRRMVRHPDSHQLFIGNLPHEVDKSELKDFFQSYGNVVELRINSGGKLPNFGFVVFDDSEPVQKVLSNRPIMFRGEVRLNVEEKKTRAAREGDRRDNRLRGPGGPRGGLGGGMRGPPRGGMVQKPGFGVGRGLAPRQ
Method: RNA Bind-n-Seq
Form: RNA
Matrix: in vitro
Concentration: 200 nM
Notes: whole 134-nt RNA, ends assumed
With: 150 mM KCl
Reference: input library
Direction: higher = stronger binding
Shared flanks, not repeated: GGGAGUUCUACAGUCCGACGAUC … UGGAAUUCUCGGGUGUCAAGG
Oligonucleotide | log2 enrichment
AGUCCUGUGCUACACAUCGUAUGUACCGAAUCGGGGUGGGGAAAAAGGGGAAAGGGGAAAGUAUUAUGUUACGCCGUUCGGAUCUGCACU | 0.524
UCCUGUGCUACACAUCGUAUGUACCGAAUCAAACCCCCAAAUUUUUUUAAAUUUUUAAAAAAGUAUUAUGUUACGCCGUUCGGAUCUGCA | 0.311
CGGUCAGACUUUGUGUUACAUAAAUUAACACUGUUCUCAGGUAAUGAGAGAUCCAAACACCAAGCGCUCCAGGGGCUUUGGGUUUGUCAC | -1.25
UAACUUUAGAGGAGGAUCUGAUGAAUAUGGCAGUGGACGUGGAUUUGGGGAUGGCUAUAAUGGGUAUGGAGGAGGACCUGGAGGUGGCAA | 0.396
CUCAAGUCCUGUGCUACACAUCGUAUGUACCGAAUCGGUUGGUUGGGGUUGGGAAAGUAUUAUGUUACGCCGUUCGGAUCUGCACUUCCA | -0.000208
ACCAUGCAGGUGGGCAUCUUUGGGAAGUGGGGCAAGGGGGGGAUAGGGAGGGGGGUAACACUUUGGGAACAGGUGGUCCCAGGUCGUUAC | 1.14
AGUCCUGUGCUACACAUCGUAUGUACCGAAUCGGUUUUUUUGGAAAAAAAGGAAAGGAAAGUAUUAUGUUACGCCGUUCGGAUCUGCACU | -1.47
CAAGUCCUGUGCUACACAUCGUAUGUACCGAAUCGGUGGAAAAAGGUUUUUUUGGAAAGUAUUAUGUUACGCCGUUCGGAUCUGCACUUC | -0.972
AAGUCCUGUGCUACACAUCGUAUGUACCGAAUCGGUUUGGAAAAAGGAAAAAAAGGAAAGUAUUAUGUUACGCCGUUCGGAUCUGCACUU | -0.971
GUCCUGUGCUACACAUCGUAUGUACCGAAUCGGGAAAGGGUUUUUUUGGGAAAAAGGGAAAGUAUUAUGUUACGCCGUUCGGAUCUGCAC | -0.493
CAUCAAAAUAGCUACAAACCAUACUAAAUUAUUCCAUUUGCAACUUAUCCCCAACAGGUAUGUUCUAAAAAUAGUUUUUUUUUGUCAUUU | -0.603
UAACUUUAGAGGAGGAUCUGAUGGAUAUGGCAGUGGACGUGGAUUUGGUGAUGGCUAUAAUGGGUAUGGAGGAGGACCUGGAGGUGGCAA | 0.0921
CUGUGCUACACAUCGUAUGUACCGAAUCGGGUUUUUUUGGGUUUUUUUGGGUUUUUUUGGGGAAAGUAUUAUGUUACGCCGUUCGGAUCU | -0.948
AAGUCCUGUGCUACACAUCGUAUGUACCGAAUCGGGAAAAAGGGUUUUUGGGUGGGAAAGUAUUAUGUUACGCCGUUCGGAUCUGCACUU | 0.276

Sample 6
Target: Sal-like protein 4, full length isoform A (SALL4, Homo sapiens, UniProt Q9UJQ4, residues 1-1053)
UniProt Q9UJQ4, sequence (whole entry, looked up): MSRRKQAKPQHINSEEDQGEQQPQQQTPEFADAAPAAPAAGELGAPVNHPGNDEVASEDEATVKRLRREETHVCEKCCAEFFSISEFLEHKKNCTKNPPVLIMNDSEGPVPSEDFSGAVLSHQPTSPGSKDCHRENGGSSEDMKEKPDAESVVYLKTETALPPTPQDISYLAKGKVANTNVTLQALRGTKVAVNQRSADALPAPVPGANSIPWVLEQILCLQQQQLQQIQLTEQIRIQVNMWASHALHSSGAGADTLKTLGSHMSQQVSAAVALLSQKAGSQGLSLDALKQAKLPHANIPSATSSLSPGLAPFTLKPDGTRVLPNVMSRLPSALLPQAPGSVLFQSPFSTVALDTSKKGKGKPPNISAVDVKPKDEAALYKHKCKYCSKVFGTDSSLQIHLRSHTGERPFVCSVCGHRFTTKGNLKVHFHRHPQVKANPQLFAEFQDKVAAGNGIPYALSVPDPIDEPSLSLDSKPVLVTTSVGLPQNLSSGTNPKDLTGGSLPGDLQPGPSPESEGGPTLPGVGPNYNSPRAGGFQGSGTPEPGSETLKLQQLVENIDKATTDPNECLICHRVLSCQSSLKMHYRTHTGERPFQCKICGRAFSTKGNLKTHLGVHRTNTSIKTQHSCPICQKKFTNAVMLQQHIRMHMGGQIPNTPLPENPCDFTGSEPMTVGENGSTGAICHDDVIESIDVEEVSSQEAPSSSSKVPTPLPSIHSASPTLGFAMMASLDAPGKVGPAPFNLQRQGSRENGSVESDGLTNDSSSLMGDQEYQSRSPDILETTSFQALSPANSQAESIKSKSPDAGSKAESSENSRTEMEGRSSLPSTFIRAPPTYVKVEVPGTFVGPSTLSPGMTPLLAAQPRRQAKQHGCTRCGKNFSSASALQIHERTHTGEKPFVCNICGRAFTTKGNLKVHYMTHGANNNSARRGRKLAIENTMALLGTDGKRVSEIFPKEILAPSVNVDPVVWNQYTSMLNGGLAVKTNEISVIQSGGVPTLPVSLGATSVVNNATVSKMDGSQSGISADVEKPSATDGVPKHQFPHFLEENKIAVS
Method: universal PBM
Form: double-stranded DNA, one strand shown
Matrix: in vitro
Concentration: 600 nM
Notes: 8-mer, flanks averaged, mean of replicates
Direction: higher = stronger binding
Oligonucleotide | E-score
GAGGCAAC | -0.222
CGTAAGGC | -0.0641
CGTTTAAC | 0.194
AAAGTGCG | -0.0372
TCCTCTAA | 0.0584
CCTGCACG | -0.145
ATTACAGA | 0.277
CGATTATC | 0.0951
CAATCTGG | -0.0263
CAAGTACC | -0.0663
AATGAGGA | 0.033
GATGTGGA | 0.152
ACTTCTCC | -0.117
GTTAGGTA | 0.158
AGCCGGCG | -0.278
ACTGTTCA | -0.0617
CAGACAAA | 0.0498
AGCCGCTG | -0.216
GATTGACC | -0.0677
CTGCGTCA | -0.0438
AGTGGACC | -0.268
CATAAGTA | 0.269
AAGTGCCG | -0.172
CGACAAAA | 0.177
AGAGACTA | 0.0246

Single results of other studies
Substance | target | test | test system | setting | scale | endpoint | result
PhoQ, residues 284 288 289 292 302 303 SLSVQF | PhoP, residues 12 14 15 18 19 NYFTV (Escherichia coli, UniProt P23836) | Sort-seq, measured: YFP reporter | E. coli | PhoQ-PhoP variant library, with: 10 µM Mg2+ | reference: high Mg2+ state, higher = stronger signaling | fold induction | 13.3

Excerpt of the above (sample 6):
Oligonucleotide | E-score
AGCCGGCG | -0.278
ACTGTTCA | -0.0617
CAGACAAA | 0.0498
AGCCGCTG | -0.216
GATTGACC | -0.0677
CTGCGTCA | -0.0438
AGTGGACC | -0.268
CATAAGTA | 0.269
AAGTGCCG | -0.172
CGACAAAA | 0.177
